# Published values pooled from the literature.
# Lines come from different studies, so protocols differ. ± gives the spread as reported.
Structure (SMILES),target or system,test,system,conditions,scale,quantity,value
C=C(C(=O)O)[C@@H]1CC[C@@]2(C)CCC(=O)C(C)=C2C1,human Neutrophil,"superoxide release, inhibitor, absorbance",,10 µM,,inhibition,18.5%
CC1=CCC23OC2(C)CCC2C(C[N+](C)(C)C)C(=O)OC2C13.[I-] (stereo not shown),OVCAR-3,"cell growth or viability, SRB",,8.3 µM,,inhibition,54.3%
COCCOCCOCCOc1ccc(-n2cc(CCCN(CCNc3ccnc4cc(Cl)ccc34)C(=O)CCC(=O)OC3OC4OC5(C)CCC6C(C)CCC(C3C)C46OO5)nn2)cc1 (stereo not shown),K562,"cell growth or viability, resazurin",,"10 µM, 48 h",,inhibition,47.3%
Cc1ccc(C(C)C)c(OC(=O)Cn2cnc3c2c(=O)n(C)c(=O)n3C)c1,RAW264.7,"NO release, inhibitor, Griess",,"25 µM, LPS-stimulated",,inhibition,70.7%
COc1cc(-c2oc3cc(OC)c(OC)c(O)c3c(=O)c2OC)ccc1O,human Neutrophil,"superoxide release, inhibitor, absorbance",,10 µM,,inhibition,92%
N=C(N)NCCC[C@@H]1NC(=O)[C@H](CCCCNC(=O)CCOCCOCCOCCOCCNC(=O)CN2CCN(CC(=O)O)CCN(CC(=O)O)CCN(CC(=O)O)CC2)NC(=O)[C@@H](Cc2ccccc2)NC(=O)[C@H](CC(=O)O)NC(=O)CNC1=O [indium-111 labelled],,,"female athymic nude mice, muscle","intravenous, 3 µCi, 72 h, U-87 MG glioma xenograft",,tissue uptake,0.13 ± 0.05 %ID/g
CN[C@](C)(C[18F])C(=O)O,A549 tumour model,,"host not given, lung","1 h, tumour-bearing",,tracer uptake,1.3 %ID/g
OC[C@H]1[C@@H](O)[C@@H](O)CN1Cc1ccc(Br)cc1,K562,"cell growth, MTS",,concentration not given,,inhibition,no inhibition
C=CCc1ccc(OC(=O)Cn2cnc3c2c(=O)n(C)c(=O)n3C)c(OC)c1,RAW264.7,"NO release, inhibitor, Griess",,"25 µM, LPS-stimulated",,inhibition,86.8%
CC1=C2[C@@H](O)[C@H](C(=O)O)CC[C@@]2(C)CCC1=O,human Neutrophil,"elastase release, inhibitor",,10 µM,,inhibition,2.74%
CC12CCC3(CCC(=O)OCCNc4ccnc5cc(Cl)ccc45)C(C)(OOC3(C)O1)O2,K562,"cell growth or viability, resazurin",,"10 µM, 48 h",,inhibition,6.5%
C=C(C(=O)OC)[C@@H]1CC[C@@]2(C)CCC(=O)C(C)=C2C1,human Neutrophil,"superoxide release, inhibitor, absorbance",,10 µM,,inhibition,18.3%
C=CCc1ccc(OC(=O)COC(=O)Cn2cnc3c2c(=O)n(C)c(=O)n3C)c(OC)c1,RAW264.7,"NO release, inhibitor, Griess",,"25 µM, LPS-stimulated",,inhibition,88%
C#CCCCNCCNc1ccnc2cc(Cl)ccc12,K562,"cell growth or viability, resazurin",,"10 µM, 48 h",,inhibition,5.5%
COc1cc(-c2oc3cc(O)c(OC)c(O)c3c(=O)c2OC)ccc1O,human Neutrophil,"superoxide release, inhibitor, absorbance",,10 µM,,inhibition,80.3%
COC[C@H](NC(C)=O)C(=O)NCc1ccccc1,CAD,sodium current,,"100 µM, holding potential -80 mV",baseline: DMSO,inhibition,no inhibition
CC12OOC(C)(OO1)C2CCC(=O)NCCCNc1ccnc2cc(Cl)ccc12 (stereo not shown),K562,"cell growth or viability, resazurin",,"10 µM, 48 h",,inhibition,83%
N=C(N)NCCC[C@@H]1NC(=O)[C@H](CCCCNC(=O)CC[C@H](NC(=O)CCOCCOCCOCCOCCNC(=O)CN2CCN(CC(=O)O)CCN(CC(=O)O)CCN(CC(=O)O)CC2)C(=O)NCCCC[C@@H]2NC(=O)[C@@H](Cc3ccccc3)NC(=O)[C@H](CC(=O)O)NC(=O)CNC(=O)[C@H](CCCNC(=N)N)NC2=O)NC(=O)[C@@H](Cc2ccccc2)NC(=O)[C@H](CC(=O)O)NC(=O)CNC1=O [indium-111 labelled],,,"female athymic nude mice, lungs","intravenous, 3 µCi, 0.5 h, U-87 MG glioma xenograft",,tissue uptake,3.01 ± 0.43 %ID/g
C=C(C(=O)O)[C@@H]1CC[C@@]2(C)CCC(=O)C(C)=C2[C@H]1O,human Neutrophil,"superoxide release, inhibitor, absorbance",,10 µM,,inhibition,6.23%
CC[C@H](C)[C@H](NC(=O)[C@H](CC(C)C)NC(=O)[C@@H](NC(=O)[C@@H](NC(=O)[C@H](CCSC)NC(C)=O)[C@@H](C)CC)[C@@H](C)CC)C(=O)N[C@H](C(=O)N[C@@H](CO)C(=O)N[C@@H](Cc1ccccc1)C(=O)N1CCC[C@H]1C(=O)N[C@@H](CCCCN)C(=O)N[C@@H](Cc1c[nH]cn1)C(=O)N[C@@H](CCCCN)C(=O)N[C@@H](CC(=O)O)C(=O)N[C@@H](Cc1c[nH]c2ccccc12)C(=O)N[C@@H](CCCCN)C(=O)N[C@H](C(=O)N[C@H](C(=O)N[C@@H](CC(C)C)C(=O)N[C@H](C(=O)N[C@@H](CCCCN)C(N)=O)C(C)C)[C@@H](C)CC)C(C)C)[C@@H](C)CC,human cells,total IgG production,,concentration not given,,inhibition,≥ 50%
CC12OOC(C)(OO1)C2CCC(=O)OCCNc1ccnc2cc(Cl)ccc12 (stereo not shown),K562,"cell growth or viability, resazurin",,"10 µM, 48 h",,inhibition,82.6%
CC(C)[C@@H]1CC[C@@H](C)C[C@H]1OC(=O)COC(=O)Cn1cnc2c1c(=O)n(C)c(=O)n2C,RAW264.7,"NO release, inhibitor, Griess",,"25 µM, LPS-stimulated",,inhibition,79.3%

# Excerpt of the above:
Structure (SMILES),target or system,test,system,conditions,scale,quantity,value
COc1cc(-c2oc3cc(OC)c(OC)c(O)c3c(=O)c2OC)ccc1O,human Neutrophil,"superoxide release, inhibitor, absorbance",,10 µM,,inhibition,92%
C=C(C(=O)O)[C@@H]1CC[C@@]2(C)CCC(=O)C(C)=C2[C@H]1O,human Neutrophil,"superoxide release, inhibitor, absorbance",,10 µM,,inhibition,6.23%
CC1=CCC23OC2(C)CCC2C(C[N+](C)(C)C)C(=O)OC2C13.[I-] (stereo not shown),OVCAR-3,"cell growth or viability, SRB",,8.3 µM,,inhibition,54.3%
